Published values of several laboratories.
Every numbered part comes from another study and shows a few of its results, in no order. Changes are numbered by the printed parent chain.

Block 1 — method: RNA Bind-n-Seq; form: RNA; medium: in vitro; tested at: 200 nM; setting: whole 134-nt RNA, ends assumed; added: 150 mM KCl; baseline: input library; direction: higher = stronger binding; quantity: log2 enrichment
Target: Ras GTPase-activating protein-binding protein 1, full length (G3BP1, Homo sapiens, UniProt Q13283)
Chain of UniProt Q13283 (whole entry, looked up): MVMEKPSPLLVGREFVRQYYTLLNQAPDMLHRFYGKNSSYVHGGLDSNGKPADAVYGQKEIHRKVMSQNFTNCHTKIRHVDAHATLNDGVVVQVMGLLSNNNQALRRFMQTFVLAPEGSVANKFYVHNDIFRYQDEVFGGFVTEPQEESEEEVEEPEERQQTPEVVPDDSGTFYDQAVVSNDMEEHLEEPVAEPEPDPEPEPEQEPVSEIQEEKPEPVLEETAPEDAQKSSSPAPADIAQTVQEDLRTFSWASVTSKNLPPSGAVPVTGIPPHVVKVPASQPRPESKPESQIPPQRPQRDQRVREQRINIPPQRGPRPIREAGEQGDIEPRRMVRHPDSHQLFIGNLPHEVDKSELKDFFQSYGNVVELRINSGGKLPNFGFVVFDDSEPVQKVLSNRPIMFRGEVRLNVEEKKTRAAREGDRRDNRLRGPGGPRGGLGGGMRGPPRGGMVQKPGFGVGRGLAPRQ
Constant ends, left off below: GGGAGUUCUACAGUCCGACGAUC … UGGAAUUCUCGGGUGUCAAGG
Strand = CCUGUGCUACACAUCGUAUGUACCGAAUCGGGAAAAAAAGGGAAAAAGGGUUUUUUUGGGAAAGUAUUAUGUUACGCCGUUCGGAUCUGC; value = -0.837
Strand = GUCCUGUGCUACACAUCGUAUGUACCGAAUCGGUUUUUGGGUUUUUGGGGUUUUUGGGAAAGUAUUAUGUUACGCCGUUCGGAUCUGCAC; value = -0.691
Strand = GUCCUGUGCUACACAUCGUAUGUACCGAAUCGGGGUUUGGGGUUUUUGGGGUUUGGGGAAAGUAUUAUGUUACGCCGUUCGGAUCUGCAC; value = 0.52
Strand = UGGGAGGUGGAUUUUGUUUAUUUUUUUAGCUCAUUUCCAGGUGUGGGAAUUUUUUUUUAAUAUGUGUCAUGAAUAAAGUUGUUUUUGAAA; value = -0.12
Strand = AGUCCUGUGCUACACAUCGUAUGUACCGAAUCGGUUUUUUUGGUUUUUGGUUUUUGGAAAGUAUUAUGUUACGCCGUUCGGAUCUGCACU; value = -1.41
Strand = UGGCCCUGGUGGCAUGCGGGGAGGAAGAGGUGGCCUCAUGGAUCGUGGUGGUCCCGGUAGAAUGUUCAGAGGUGGCCGUGGUGGAGACAG; value = 0.0655
Strand = CUCAAGUCCUGUGCUACACAUCGUAUGUACCGAAUCGGGUUGGUUGGUUGGGGAAAGUAUUAUGUUACGCCGUUCGGAUCUGCACUUCCA; value = -0.0542

Block 2 — method: protein-binding microarray; form: double-stranded DNA, one strand shown; medium: in vitro; tested at: 250 nM; setting: 60-bp whole probe; added: salmon DNA 0.4 mg/ml; baseline: random background probes; direction: higher = stronger binding; quantity: log fluorescence; constant ends, left off below: GCCTAGCAC … GTCTTGATTCGCTTGACGCTGCTG
Target: Interferon regulatory factor 5, full length, phosphomimetic (IRF5, Homo sapiens, UniProt Q13568-2, residues 1-514, K96S/S451D/S453D/S456D/S462D)
Strand = TTAGGACTGGATTATCGGTTAGTGCTA; value = 4 z-score
Strand = TCAAGGTTCTCTTTTATACTGTGCTAG; value = 0.0482 z-score
Strand = GACGGTTTCGGTTCCTGGACGTGCTAG; value = 9.44 z-score
Strand = TTAGGTTTCCTTAACCTTTAGTGCTAG; value = 0.505 z-score
Strand = TCAACTTGTCTTTTCATACTGTGCTAG; value = 0.902 z-score
Strand = TCAGGTTGAACATGAACACTGTGCTAG; value = -0.27 z-score
Strand = TCAAATTTCCATTTTCTACTGTGCTAG; value = 1.87 z-score

Block 3 — target: CCNE1, cyclin fold, Cln2 fusion (human); method: yeast growth competition, sequencing; medium: yeast; setting: strong parent motif; baseline: not given; direction: higher = stronger binding; quantity: normalised enrichment score
Starting sequence: RBL1 docking peptide (human); GSAKRRLFGEDPP; partner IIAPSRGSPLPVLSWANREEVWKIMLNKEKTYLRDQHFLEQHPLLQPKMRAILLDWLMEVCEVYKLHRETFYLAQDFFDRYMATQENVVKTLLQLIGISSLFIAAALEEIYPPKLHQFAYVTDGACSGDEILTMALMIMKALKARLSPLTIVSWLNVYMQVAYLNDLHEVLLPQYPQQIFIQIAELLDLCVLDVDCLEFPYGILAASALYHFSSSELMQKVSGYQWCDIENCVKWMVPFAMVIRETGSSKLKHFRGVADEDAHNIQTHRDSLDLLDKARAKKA
Variant = D11Q; value = 5.3
Variant = P13I; value = 6.77
Variant = G9I; value = 6.74
Variant = P12K; value = 5.98
Variant = R6L; value = 2.51

Further values, each from its own experiment
Substance = PhoQ, residues 284 288 289 292 302 303 SIHLQL; target = PhoP, residues 12 14 15 18 19 IFFTR (Escherichia coli, UniProt P23836); assay = Sort-seq, measured: YFP reporter; system = E. coli; setting = PhoQ-PhoP variant library, added: 10 µM Mg2+; how to read = baseline: high Mg2+ state, higher = stronger signaling; quantity = fold induction; value = 2.02

Repeated from above (block 2):
Strand = TCAACTTGTCTTTTCATACTGTGCTAG; value = 0.902 z-score
